# Published values pooled from the literature.
# Numbered parts are unrelated; each lists some results of a single study. Substitutions count along the parent as printed.

# Sample 1 — technique: protein-binding microarray; molecule type: double-stranded DNA, one strand shown; medium: in vitro; concentration: 2200 nM top; setting: 60-bp whole probe; added: salmon DNA 0.4 mg/ml; relative to: random background probes; reading: higher = stronger binding; shared flanks, not repeated: GCCTAGCAC … GTCTTGATTCGCTTGACGCTGCTG
# Target: Interferon regulatory factor 7, full length, phosphomimetic (IRF7, Homo sapiens, UniProt Q92985, residues 1-503, S471D/S472D/S475D/S476D/S477D/S483D/S484D/S487D)
# Target sequence (chain): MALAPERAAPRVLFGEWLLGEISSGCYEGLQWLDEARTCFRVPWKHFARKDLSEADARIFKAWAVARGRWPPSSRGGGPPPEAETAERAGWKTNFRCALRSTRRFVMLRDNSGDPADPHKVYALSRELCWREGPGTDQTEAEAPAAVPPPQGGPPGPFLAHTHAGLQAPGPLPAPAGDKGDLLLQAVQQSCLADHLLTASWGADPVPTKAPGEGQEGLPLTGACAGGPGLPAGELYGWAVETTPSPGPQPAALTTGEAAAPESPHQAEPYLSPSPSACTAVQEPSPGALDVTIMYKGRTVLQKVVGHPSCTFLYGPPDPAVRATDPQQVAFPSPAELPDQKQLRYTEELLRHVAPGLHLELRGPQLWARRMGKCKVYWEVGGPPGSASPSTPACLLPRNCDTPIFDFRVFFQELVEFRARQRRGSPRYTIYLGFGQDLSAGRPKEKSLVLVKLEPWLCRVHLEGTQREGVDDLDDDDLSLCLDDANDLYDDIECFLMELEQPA
Strand,fitted relative affinity [z-score]
GACGGTCTCGGTCTCTGGACGTGCTAG,0.257
TTAGATTTCAGTCTCTATTAGTGCTAG,0.873
GACGGAGTGCTACTGCTGACGTGCTAG,0.276
TTATGTTTCCTTATCCTTTAGTGCTAG,3.18
TCATATATACCTGTATAACTGTGCTAG,1.06
TTAGAACTGGGGGTTCGATTAGTGCTA,0.651
TTCTGAGCCTGGGTGGATGGGTGCTAG,-0.753
TTAGAACCGGGGTTTCGATTAGTGCTA,2.22
TTTTTTTTATTTATAAATTAGTGCTAG,0.87
TCATTTTTAGAAATTTTTACTGTGCTA,0.303
GACTCTTCAGCACTCGGGTCGTGCTAG,0.902
TTTGGTTCCGGTTTCGGTTAGTGCTAG,8.91
TTAGAACTGAAACTGGATTAGTGCTAG,-0.0742
TCATTTCCCAGAACTGGAACTGTGCTA,1.85
TCAAATTCTCATTTCCAACTGTGCTAG,0.962
TTAGGACTGGACTAGCGGTTAGTGCTA,-0.868
GACCATATCAGTTTCGAGACGTGCTAG,4.04
GACGATTTCAGTCTCGAGTCGTGCTAG,1.34
TTAGCTCTCCTTCTCCTTTAGTGCTAG,1.39

# Sample 2 — technique: protein binding microarray; molecule type: double-stranded DNA, one strand shown; medium: in vitro; concentration: not given; relative to: not given; reading: higher = stronger binding
# Target: Histone acetyltransferase KAT6A, winged helix 2, GST fusion (KAT6A, Homo sapiens, UniProt Q92794, residues 85-181)
# Setting: 8-mer, flanks averaged, mean of 2 arrays, mostly near background
# Target sequence (chain): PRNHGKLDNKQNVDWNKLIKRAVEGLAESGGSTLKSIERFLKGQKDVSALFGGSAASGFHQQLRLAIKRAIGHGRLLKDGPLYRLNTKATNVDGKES
Strand,E-score
GTGACAGA,0.0541
CAGATCGA,0.0597
CTAGTTAA,-0.0422
ACCACGTA,-0.208
ACGCTCGA,-0.092
AGTGTTCA,-0.161
CTCTACGA,-0.0783
CGGGCCCC,0.214
AAGAGTCC,-0.0769
GAAACGCA,0.0248
ACTAGTGA,-0.225
ATGTGGGC,-0.0639
GAATGCCC,-0.0825
CCCTGATA,-0.199
GCATTAGC,0.0547
AACGATCA,-0.0785
CGCTACTA,0.0862
CGCTTATA,-0.0586
AAAGTAAA,-0.144
CGCGCGGC,0.279
CCCATGGA,-0.197
AATCAGAC,-0.00071
GGTTTGGA,-0.0632
ATTCTGGG,0.0087
GAGGCCGA,0.0644

# Sample 3 — technique: RNA Bind-n-Seq; molecule type: RNA; medium: in vitro; concentration: 365 nM; relative to: no-protein control; reading: higher = stronger binding
# Target: RNA binding protein fox-1 homolog 2, RRM domain, GST-SBP tag (RBFOX2, Homo sapiens, UniProt O43251-10, residues 100-194)
# Setting: natural RNA segment, single round, ends assumed
# Shared flanks, not repeated: GGGAGUUCUACAGUCCGACGAUC … UGGAAUUCUCGGGUGCCAA
# Residues (chain): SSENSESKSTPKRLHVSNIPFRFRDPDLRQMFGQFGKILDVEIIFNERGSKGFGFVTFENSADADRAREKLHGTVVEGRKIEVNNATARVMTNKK
Strand,RBNS enrichment (R)
GUUUACAAUACAUGUAUAACUUGUAGCUAUAAACAUUUUGUGCCAUUAAAGCUCUCACAAAACUUUUCCUGUCAGUAUAUCAUUUUUCUGUCGCACCUGUUGCCUGGGAG,0.629
CUCAUUUUUCCCACAGUGGAGAUUUGGAAGAUGUCCCAAUUUAAUGUAGGUGUUUUCAUCUGUCAUGAAGGGACAGAUGAGAUCCUACUACUUGCGAAGUUUCUAUGCAU,0.569
UAAAAUGCUCCCUGUGAGUUUGCAAGCUCUGAAAACAACACCGCUGUGUGCUCAUUCUUAGAGUGAAGACCCUGAAAGGUAUCCCUUUGCAGCCUGUCUCCUGUUUUGAG,0.305
UUAGGAGGGCUUUAGGGGCUCCCUGGUUGAGUAUCACCCUGCCCCUUCCCCUCUCUUCCUCCCCUCUGCACUUUGUUUACUUGUUUUGCACAGACGUGGGCCUGGGCCUU,0.627
GCUCACACCUGAGACAGGAAGGAGGAAGGGGAUCCAAUAGGAAUAUGGGCCCCGGAGGGGAAGUCAUGCACCCCCAAGCCACCACCCCCCAGCCUUCCACGCACAUCUCC,1.03
UUUUAAGAAGUUUUACUACAGGAAUGUCUACUUUUGUAAGUGACAGGUGUUAAAGGCCCAGGUGUGCUGUGCCAAAGAGCUCAGCAGAGGCUCACGUGGCCCAGGCUGGU,0.421
CAGAGGAUCCGGAUCUCAGAGCCUGAGACCAGGUUUAUUGGGGCCUGGCCUGUCCUCUAAGUCAAGUUUAGGAAAACAAGGAUAAGAUUCUGUCAUAGGCAUAGAGAGUU,0.437
AGAGCUGUGGAUGCCGCCUCCUGCCCUGCCUACCCCUGAAACGUGGGGAAUGGGGGCCCCAGGACAGCAUCAGGACUUUUGAGUCCAGCUGCCAGCAAUGGUUCCAACUC,0.278
GCAGUGUUUACCAUAAACAGGUACAGGCUUCAUGAGUUUUUCAUACUGAUUUACAAUUGAGUAGAUACCAAAAACAGAGUGGCAAGUGUAUUUUAGUAGCAGUUGAGGCA,0.433
AAUCCCUCAAAGGCUACCCUACCCGUGAUACCUUCUGGGAGGGGCGGAGUCACCGAGACUGAGAUGAGGAGAGGGGCACGUGCGCCCGCCCGCCCUCUGGGCUGUGGAGC,0.369
AUUGCCAGUUUUCUUCAUUCAGAAUCUGUUUGUUGAUCAAGUGACUGUCCCCGUAAAAAGUAGAAGAUAAGUUUGUUAAAGUAUUUUUUAUAAACAGCUUAAUAUAAAAC,0.511
AAGGUGCCCAUUUGACCACUGUGAGGCAAAUAGAAACAGUCCCUAAGGGUCCUAUGUGGCUGUGUUGUGACAGCCCUUACCCAGGUAAGAGAUGGAUGUCGUGAUGCCUC,0.525

# Sample 4 — target: CCNB1, cyclin fold, Cln2 fusion (human); technique: yeast growth competition, sequencing; medium: yeast; setting: strong parent motif; relative to: not given; reading: higher = stronger binding
# Parent: PKMYT1 docking peptide (human); SFEPRNLLSLFED
Change,normalised enrichment score
SFLPRNLLSLFED [E3L],1.28
SFEPANALSLFED [R5A L7A],-0.523
SFEPGNLLSLFED [R5G],0.573
CFEPRNLLSLFED [S1C],1.43
SFEPRNLLSEFED [L10E],2.06
PFEPRNLLSLFED [S1P],1.19
SMEPRNLLSLFED [F2M],-0.0916
SFEYRNLLSLFED [P4Y],0.329
SFEPDNLLSLFED [R5D],0.239
SFEPRNLLSWFED [L10W],1.02
SFEPRNHLSLFED [L7H],0.418
SFEQRNLLSLFED [P4Q],0.878
SIEPRNLLSLFED [F2I],-0.617
SFESRNLLSLFED [P4S],-0.048
SFEPRNLLSLIED [F11I],0.777
SFEPRNLQSLFED [L8Q],0.0739
SFEPRNLLSLFTD [E12T],0.326
SFEPRNWLSLFED [L7W],0.404
SFAPRNLLSLFED [E3A],1.03
SFEERNLLSLFED [P4E],-0.239
VFEPRNLLSLFED [S1V],1.68
SFEPRNLLSKFED [L10K],-0.259
SFEPRNLLSLHED [F11H],0.0364

# Sample 5 — technique: universal PBM; molecule type: double-stranded DNA, one strand shown; medium: in vitro; concentration: not given; reading: higher = stronger binding
# Target: Sal-like protein 4, full length isoform B (SALL4, Homo sapiens, UniProt Q9UJQ4-2, residues 1-616)
# Setting: 8-mer, flanks averaged, mean of replicates
# Construct (chain): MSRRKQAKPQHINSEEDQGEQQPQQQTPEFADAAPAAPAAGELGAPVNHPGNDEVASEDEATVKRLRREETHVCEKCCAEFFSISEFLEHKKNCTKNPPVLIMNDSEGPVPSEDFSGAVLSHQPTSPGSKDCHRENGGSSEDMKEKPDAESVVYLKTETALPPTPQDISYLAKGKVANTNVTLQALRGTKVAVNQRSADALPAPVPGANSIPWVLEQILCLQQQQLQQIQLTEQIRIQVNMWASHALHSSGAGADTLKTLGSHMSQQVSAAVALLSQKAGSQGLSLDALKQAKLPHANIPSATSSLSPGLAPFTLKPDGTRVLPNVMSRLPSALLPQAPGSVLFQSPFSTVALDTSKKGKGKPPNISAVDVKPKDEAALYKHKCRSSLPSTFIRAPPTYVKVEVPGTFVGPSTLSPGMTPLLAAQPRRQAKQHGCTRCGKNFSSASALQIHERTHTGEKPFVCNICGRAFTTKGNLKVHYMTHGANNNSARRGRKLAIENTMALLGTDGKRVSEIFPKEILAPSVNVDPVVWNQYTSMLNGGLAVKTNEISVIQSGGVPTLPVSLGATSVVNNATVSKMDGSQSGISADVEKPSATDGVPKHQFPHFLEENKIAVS
Strand,E-score
AGGATAGG,0.00136
ACGCACCA,-0.116
CCATACAG,-0.0523
GCATTGCA,-0.0548
AAACACCA,0.0815
AGGTCTGA,-0.0748
TACATCGA,0.0863
CACGCATA,0.0339
AGCGATGG,-0.284
GCAAGCTA,-0.00878
AACCGGGA,-0.139
AGAATGTG,-0.0287
CTACTACA,0.203
AGTCCAAG,-0.0802
GAAGTCCC,-0.24
TAGACGCA,0.127
GTCCAAAA,0.189
GTTTCTCA,-0.00757
CGTGAACA,-0.0779
TCCGATAA,0.155
CCCGATAC,-0.0602
CATGGAGC,-0.188
GAGCTTGC,-0.27

# Sample 6 — technique: aptamer microarray, sandwich; molecule type: DNA with 2'F-ANA; medium: in vitro; concentration: 200 nM; added: Cy3 exosite-II aptamer, 400 nM; reading: higher = stronger binding; strand: GGTTGGTGTGGTTGG
# Target: Prothrombin, mature alpha-thrombin (F2, Homo sapiens, UniProt P00734)
# Setting: whole 15-mer aptamer, many near background
Modification,mean fluorescence intensity
2'F-ANA at 2 3 4 7 8 9 12 14 15,322 a.u.
2'F-ANA at 3 5 6 9 10 11 13 14 15,99.3 a.u.
2'F-ANA at 3 10 11 14,448 a.u.
2'F-ANA at 4 6 9 10 11 12 15,99.8 a.u.
2'F-ANA at 2 3 4 9 11 13,406 a.u.
2'F-ANA at 4 8 9 11 14 15,93.7 a.u.
2'F-ANA at 1 3 4 5 6 7 8 9 10 11 15,82.4 a.u.
2'F-ANA at 4 6 8 9 10 11 13 14 15,55.4 a.u.
2'F-ANA at 1 3 5 6 8 11 13 15,56.9 a.u.
2'F-ANA at 2 3 4 9 12 13 14 15,479 a.u.
2'F-ANA at 4 6 7 10 13,65.4 a.u.
2'F-ANA at 4 7 10 11 12 13 14,58.7 a.u.
2'F-ANA at 7 8 9 10 12 13,243 a.u.
2'F-ANA at 1 3 5 6 14,47.3 a.u.
2'F-ANA at 1 4 5 8 9 10 11 13 14 15,68.5 a.u.
2'F-ANA at 2 6 7 8 10 13,119 a.u.
2'F-ANA at 1 3 4 5 7 8 9 10 13 15,47.4 a.u.
2'F-ANA at 2 7 11 13,430 a.u.
2'F-ANA at 1 4 5 7 10 11 13 14 15,48.2 a.u.
2'F-ANA at 1 3 4 6 12,414 a.u.
2'F-ANA at 2 3 5 6 8 9 10 12 13 14,46.1 a.u.
2'F-ANA at 3 4 6 8 9 11 12 13 14,246 a.u.
2'F-ANA at 3 4 5 6 7 9 11 15,68.4 a.u.
2'F-ANA at 1 2 3 4 6 9 11 12 13 14,60.2 a.u.
2'F-ANA at 5 6 9 11 12,123 a.u.
